{"data": "Measurements gathered from unrelated publications", "note": "Parts stem from different laboratories: compare values within a part only. “And” joins repeats or separate records; there may be more than shown.", "UniProt P10721, sequence (whole entry, unmodified, looked up)": "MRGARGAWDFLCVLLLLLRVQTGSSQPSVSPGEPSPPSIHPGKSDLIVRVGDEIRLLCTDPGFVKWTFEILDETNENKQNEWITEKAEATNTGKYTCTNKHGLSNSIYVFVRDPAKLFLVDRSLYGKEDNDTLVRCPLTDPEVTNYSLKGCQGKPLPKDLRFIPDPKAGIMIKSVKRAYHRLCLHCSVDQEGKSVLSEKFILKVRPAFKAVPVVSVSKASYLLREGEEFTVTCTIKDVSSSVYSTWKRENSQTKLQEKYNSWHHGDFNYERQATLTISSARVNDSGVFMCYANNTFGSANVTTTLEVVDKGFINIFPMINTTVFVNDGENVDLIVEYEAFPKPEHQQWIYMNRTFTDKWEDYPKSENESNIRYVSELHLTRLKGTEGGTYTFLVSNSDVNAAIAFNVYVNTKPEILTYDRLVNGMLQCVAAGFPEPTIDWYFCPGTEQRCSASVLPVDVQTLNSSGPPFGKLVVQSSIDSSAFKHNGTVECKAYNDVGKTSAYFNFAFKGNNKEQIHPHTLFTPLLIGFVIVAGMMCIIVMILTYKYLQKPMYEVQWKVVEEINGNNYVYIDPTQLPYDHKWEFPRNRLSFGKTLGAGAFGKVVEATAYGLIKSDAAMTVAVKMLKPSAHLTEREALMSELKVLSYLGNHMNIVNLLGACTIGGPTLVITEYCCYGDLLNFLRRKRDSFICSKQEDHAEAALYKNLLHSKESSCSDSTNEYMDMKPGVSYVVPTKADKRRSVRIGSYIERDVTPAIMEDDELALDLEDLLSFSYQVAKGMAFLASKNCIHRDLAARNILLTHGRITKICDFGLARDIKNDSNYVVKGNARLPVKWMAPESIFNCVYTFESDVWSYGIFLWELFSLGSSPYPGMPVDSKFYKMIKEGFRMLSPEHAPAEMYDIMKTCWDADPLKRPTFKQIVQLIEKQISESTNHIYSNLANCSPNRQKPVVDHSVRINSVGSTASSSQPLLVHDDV", "UniProt Q13546, sequence (whole entry, looked up)": "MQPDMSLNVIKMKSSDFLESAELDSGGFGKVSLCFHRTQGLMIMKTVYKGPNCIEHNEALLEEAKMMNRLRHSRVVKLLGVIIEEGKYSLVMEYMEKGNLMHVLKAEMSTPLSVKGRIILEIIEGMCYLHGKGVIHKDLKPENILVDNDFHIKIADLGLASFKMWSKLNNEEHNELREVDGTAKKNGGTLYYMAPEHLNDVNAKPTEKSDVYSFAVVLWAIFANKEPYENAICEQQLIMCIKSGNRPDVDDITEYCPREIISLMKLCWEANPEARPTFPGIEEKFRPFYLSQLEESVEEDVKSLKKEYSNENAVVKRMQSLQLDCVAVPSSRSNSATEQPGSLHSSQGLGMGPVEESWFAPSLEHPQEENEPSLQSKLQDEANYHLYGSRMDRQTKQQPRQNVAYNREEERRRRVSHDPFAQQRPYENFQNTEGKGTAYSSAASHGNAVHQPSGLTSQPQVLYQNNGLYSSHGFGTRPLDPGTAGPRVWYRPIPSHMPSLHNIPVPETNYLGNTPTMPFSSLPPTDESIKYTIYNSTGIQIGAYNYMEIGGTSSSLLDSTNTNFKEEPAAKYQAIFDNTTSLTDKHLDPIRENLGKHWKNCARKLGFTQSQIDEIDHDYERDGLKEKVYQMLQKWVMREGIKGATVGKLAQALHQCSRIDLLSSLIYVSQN", "UniProt Q8TDC3, sequence (whole entry, looked up)": "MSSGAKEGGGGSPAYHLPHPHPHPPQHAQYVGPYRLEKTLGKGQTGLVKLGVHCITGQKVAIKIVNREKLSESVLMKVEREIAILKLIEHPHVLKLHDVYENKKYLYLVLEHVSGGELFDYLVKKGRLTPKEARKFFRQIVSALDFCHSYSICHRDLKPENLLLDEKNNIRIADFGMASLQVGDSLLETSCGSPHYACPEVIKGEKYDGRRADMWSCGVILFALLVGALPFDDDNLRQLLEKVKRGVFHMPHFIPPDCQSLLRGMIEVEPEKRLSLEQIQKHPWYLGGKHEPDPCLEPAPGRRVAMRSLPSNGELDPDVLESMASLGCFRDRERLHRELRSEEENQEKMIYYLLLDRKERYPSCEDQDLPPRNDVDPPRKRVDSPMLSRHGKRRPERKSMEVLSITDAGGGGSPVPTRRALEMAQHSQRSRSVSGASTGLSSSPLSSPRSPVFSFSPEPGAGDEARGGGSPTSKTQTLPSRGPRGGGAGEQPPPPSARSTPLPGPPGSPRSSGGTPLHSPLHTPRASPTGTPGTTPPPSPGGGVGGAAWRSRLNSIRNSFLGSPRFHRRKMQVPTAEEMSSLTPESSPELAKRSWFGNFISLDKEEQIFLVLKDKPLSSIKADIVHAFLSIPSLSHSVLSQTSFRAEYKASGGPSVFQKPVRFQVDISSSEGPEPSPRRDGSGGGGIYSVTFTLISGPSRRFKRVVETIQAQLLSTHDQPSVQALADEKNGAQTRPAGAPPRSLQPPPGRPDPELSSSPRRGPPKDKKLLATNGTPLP", "UniProt Q8TD19, sequence (whole entry, looked up)": "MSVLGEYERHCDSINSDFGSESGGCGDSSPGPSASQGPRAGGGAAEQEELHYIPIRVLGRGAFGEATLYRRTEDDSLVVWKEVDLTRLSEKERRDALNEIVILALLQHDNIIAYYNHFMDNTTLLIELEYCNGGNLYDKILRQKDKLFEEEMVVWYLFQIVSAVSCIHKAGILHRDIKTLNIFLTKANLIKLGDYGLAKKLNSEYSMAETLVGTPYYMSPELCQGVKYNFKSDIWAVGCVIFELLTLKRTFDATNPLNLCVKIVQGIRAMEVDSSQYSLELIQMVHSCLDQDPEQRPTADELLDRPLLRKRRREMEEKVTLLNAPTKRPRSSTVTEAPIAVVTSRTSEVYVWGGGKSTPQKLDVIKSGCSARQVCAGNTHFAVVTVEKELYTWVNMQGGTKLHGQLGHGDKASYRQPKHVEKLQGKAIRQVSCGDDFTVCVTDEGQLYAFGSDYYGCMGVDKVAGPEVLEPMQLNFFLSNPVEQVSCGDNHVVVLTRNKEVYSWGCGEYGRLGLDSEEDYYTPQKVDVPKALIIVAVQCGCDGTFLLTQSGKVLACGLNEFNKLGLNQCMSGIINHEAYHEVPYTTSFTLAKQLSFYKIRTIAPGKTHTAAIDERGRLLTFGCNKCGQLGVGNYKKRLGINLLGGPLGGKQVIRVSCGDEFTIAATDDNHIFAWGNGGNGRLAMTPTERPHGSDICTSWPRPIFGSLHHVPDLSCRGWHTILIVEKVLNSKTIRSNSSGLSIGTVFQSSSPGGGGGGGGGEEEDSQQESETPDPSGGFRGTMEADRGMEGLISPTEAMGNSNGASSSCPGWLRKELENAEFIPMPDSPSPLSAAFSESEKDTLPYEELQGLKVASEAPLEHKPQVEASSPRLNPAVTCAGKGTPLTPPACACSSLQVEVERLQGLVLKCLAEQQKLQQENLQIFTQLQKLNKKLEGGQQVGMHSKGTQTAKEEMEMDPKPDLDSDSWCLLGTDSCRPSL", "UniProt P50613, sequence (whole entry, looked up)": "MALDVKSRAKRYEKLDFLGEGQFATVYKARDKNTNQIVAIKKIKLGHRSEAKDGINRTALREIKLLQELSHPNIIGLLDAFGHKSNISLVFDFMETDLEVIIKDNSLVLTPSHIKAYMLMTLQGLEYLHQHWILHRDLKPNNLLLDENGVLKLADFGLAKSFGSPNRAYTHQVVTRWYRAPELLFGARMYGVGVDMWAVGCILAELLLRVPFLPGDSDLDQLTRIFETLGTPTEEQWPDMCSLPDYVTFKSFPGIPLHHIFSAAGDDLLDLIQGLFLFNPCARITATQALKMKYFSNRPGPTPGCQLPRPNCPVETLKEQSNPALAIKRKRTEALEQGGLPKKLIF", "UniProt P34947, sequence (whole entry, looked up)": "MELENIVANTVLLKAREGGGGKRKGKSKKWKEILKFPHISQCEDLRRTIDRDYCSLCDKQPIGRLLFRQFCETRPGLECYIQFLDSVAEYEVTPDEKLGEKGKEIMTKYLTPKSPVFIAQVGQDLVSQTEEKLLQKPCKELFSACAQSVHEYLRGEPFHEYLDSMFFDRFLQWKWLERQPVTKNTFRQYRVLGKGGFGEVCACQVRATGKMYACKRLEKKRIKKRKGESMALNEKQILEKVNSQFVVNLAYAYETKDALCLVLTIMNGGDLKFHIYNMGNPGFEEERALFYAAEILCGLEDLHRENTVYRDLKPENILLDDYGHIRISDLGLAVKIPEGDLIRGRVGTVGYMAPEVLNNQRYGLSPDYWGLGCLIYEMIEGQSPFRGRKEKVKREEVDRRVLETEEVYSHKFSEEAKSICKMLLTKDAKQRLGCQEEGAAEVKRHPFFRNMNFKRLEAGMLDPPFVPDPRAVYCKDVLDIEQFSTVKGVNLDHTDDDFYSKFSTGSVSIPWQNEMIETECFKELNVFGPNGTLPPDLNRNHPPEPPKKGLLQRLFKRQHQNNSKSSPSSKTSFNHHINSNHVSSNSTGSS", "UniProt Q15208, sequence (whole entry, looked up)": "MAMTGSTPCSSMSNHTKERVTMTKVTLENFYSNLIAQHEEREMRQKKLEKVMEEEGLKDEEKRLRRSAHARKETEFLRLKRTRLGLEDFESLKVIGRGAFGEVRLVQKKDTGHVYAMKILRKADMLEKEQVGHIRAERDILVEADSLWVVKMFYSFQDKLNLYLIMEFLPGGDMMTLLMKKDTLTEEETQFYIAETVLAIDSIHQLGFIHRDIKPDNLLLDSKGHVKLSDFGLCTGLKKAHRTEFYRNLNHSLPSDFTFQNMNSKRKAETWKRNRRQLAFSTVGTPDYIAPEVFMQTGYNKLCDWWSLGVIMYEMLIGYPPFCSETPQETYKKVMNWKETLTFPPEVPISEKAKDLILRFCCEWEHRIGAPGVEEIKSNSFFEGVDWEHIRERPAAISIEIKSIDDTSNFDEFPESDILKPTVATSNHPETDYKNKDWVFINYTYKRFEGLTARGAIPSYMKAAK"}
{"data": "Block 1", "Structure (SMILES)": "CN(C(=O)c1ccn2ncc(-c3ccc(C(N)=O)cc3)c2c1)c1ccc(C#N)cn1", "organism": "Cryptosporidium parvum", "method": "time-kill", "cell line": "HCT-8", "strain": "nanoluciferase-expressing", "baseline": "DMSO control"}
{"tested at": "0.00914 µM", "time": "4 h", "luminescence remaining": "110% and 85.1%"}
{"tested at": "6.667 µM", "time": "24 h", "luminescence remaining": "30.1% and 46.2%"}
{"tested at": "6.667 µM", "time": "0 h", "luminescence remaining": "91.2% and 90.3% and 98% and 91.4% and 99.4% and 103% and 90.1% and 97.4%"}
{"tested at": "0.00914 µM", "time": "8 h", "luminescence remaining": "112% and 113%"}
{"tested at": "6.667 µM", "time": "8 h", "luminescence remaining": "121% and 119%"}
{"tested at": "0.00102 µM", "time": "24 h", "luminescence remaining": "102% and 93.7%"}
{"data": "Block 2", "SMILES": "CCC(=O)N1CCN(c2nc(OC[C@@H]3CCCN3C)nc3c2CCN(c2cccc4cccc(Cl)c24)C3)C[C@@H]1CC#N", "observed": "binding", "action": "competitor", "method": "NanoBRET", "cell line": "HEK293", "KRAS Q61H": "GTPase KRas (KRAS, Homo sapiens, UniProt P01116, Q61H)"}
{"target": "KRAS Q61H", "tested at": "11.1 µM", "normalized BRET": "15.7% and 14% and 19.6%"}
{"target": "GTPase KRas (KRAS, Homo sapiens, UniProt P01116, Q61R)", "tested at": "5.08 nM", "normalized BRET": "105% and 109% and 99.5%"}
{"target": "KRAS Q61H", "tested at": "1.24 µM", "normalized BRET": "52% and 62.6% and 48.5%"}
{"target": "GTPase KRas (KRAS, Homo sapiens, UniProt P01116, G12D)", "tested at": "412 nM", "normalized BRET": "94.4% and 96.7% and 92.3%"}
{"data": "Block 3", "Structure (SMILES)": "N#Cc1ccc(Nc2ccc3[nH]c(=O)[nH]c3c2)c(Cl)c1", "observed": "cell-free assay", "method": "competition with immobilised ligand", "tested at": "1 µM"}
{"target": "Serine/threonine-protein kinase 3 (STK3, Homo sapiens, UniProt Q13188)", "remaining binding": "100%"}
{"target": "Receptor-interacting serine/threonine-protein kinase 1 (RIPK1, Homo sapiens, UniProt Q13546)", "remaining binding": "100%"}
{"target": "Epidermal growth factor receptor (EGFR, Homo sapiens, UniProt P00533, G719S)", "remaining binding": "100%"}
{"target": "Non-receptor tyrosine-protein kinase TNK1 (TNK1, Homo sapiens, UniProt Q13470)", "remaining binding": "56%"}
{"target": "Serine/threonine-protein kinase 38 (STK38, Homo sapiens, UniProt Q15208)", "remaining binding": "95%"}
{"target": "Mast/stem cell growth factor receptor Kit (KIT, Homo sapiens, UniProt P10721, L576P)", "remaining binding": "89%"}
{"target": "Serine/threonine-protein kinase 4 (STK4, Homo sapiens, UniProt Q13043)", "remaining binding": "100%"}
{"target": "Mast/stem cell growth factor receptor Kit (KIT, Homo sapiens, UniProt P10721, T670I/V559D)", "remaining binding": "100%"}
{"target": "Serine/threonine-protein kinase NLK (NLK, Homo sapiens, UniProt Q9UBE8)", "remaining binding": "100%"}
{"target": "Serine/threonine-protein kinase DCLK3 (DCLK3, Homo sapiens, UniProt Q9C098)", "remaining binding": "88%"}
{"target": "Serine/threonine-protein kinase N1 (PKN1, Homo sapiens, UniProt Q16512)", "remaining binding": "100%"}
{"target": "Citron Rho-interacting kinase (CIT, Homo sapiens, UniProt O14578)", "remaining binding": "100%"}
{"target": "Tyrosine-protein kinase ABL1, phosphorylated (ABL1, Homo sapiens, UniProt P00519, M351T)", "remaining binding": "100%"}
{"target": "SNF-related serine/threonine-protein kinase (SNRK, Homo sapiens, UniProt Q9NRH2)", "remaining binding": "100%"}
{"target": "Tyrosine-protein kinase Yes (YES1, Homo sapiens, UniProt P07947)", "remaining binding": "100%"}
{"target": "Tyrosine-protein kinase ABL1, non-phosphorylated (ABL1, Homo sapiens, UniProt P00519)", "remaining binding": "100%"}
{"data": "Block 4", "Compound": "COc1cc2ncnc(N3CCN(C(=O)Nc4ccc(Oc5ccccc5)cc4)CC3)c2cc1OC", "observed": "enzyme activity", "action": "inhibitor", "tested at": "0.5 µM", "baseline": "control"}
{"target": "STE20-like serine/threonine-protein kinase (SLK, Homo sapiens, UniProt Q9H2G2)", "remaining activity": "97.9%"}
{"target": "Epidermal growth factor receptor (EGFR, Homo sapiens, UniProt P00533)", "remaining activity": "79.1%"}
{"target": "Mitogen-activated protein kinase 10 (MAPK10, Homo sapiens, UniProt P53779)", "remaining activity": "98.2%"}
{"target": "Calcium/calmodulin-dependent protein kinase type 1D (CAMK1D, Homo sapiens, UniProt Q8IU85)", "remaining activity": "104%"}
{"target": "Protein-tyrosine kinase 2-beta (PTK2B, Homo sapiens, UniProt Q14289)", "remaining activity": "91.2%"}
{"target": "Proto-oncogene tyrosine-protein kinase receptor Ret (RET, Homo sapiens, UniProt P07949)", "remaining activity": "104%"}
{"target": "Mitogen-activated protein kinase kinase kinase 8 (MAP3K8, Homo sapiens, UniProt P41279)", "remaining activity": "95.1%"}
{"target": "Cyclin-dependent kinase 7 (CDK7, Homo sapiens, UniProt P50613)", "remaining activity": "103%"}
{"target": "Mitogen-activated protein kinase kinase kinase 2 (MAP3K2, Homo sapiens, UniProt Q9Y2U5)", "remaining activity": "81.2%"}
{"target": "Casein kinase II subunit alpha' (CSNK2A2, Homo sapiens, UniProt P19784)", "remaining activity": "61.9%"}
{"target": "Serine/threonine-protein kinase BRSK1 (BRSK1, Homo sapiens, UniProt Q8TDC3)", "remaining activity": "86.4%"}
{"target": "NT-3 growth factor receptor (NTRK3, Homo sapiens, UniProt Q16288)", "remaining activity": "89%"}
{"target": "Dual specificity tyrosine-phosphorylation-regulated kinase 4 (DYRK4, Homo sapiens, UniProt Q9NR20)", "remaining activity": "79.8%"}
{"target": "Calcium/calmodulin-dependent protein kinase type 1G (CAMK1G, Homo sapiens, UniProt Q96NX5)", "remaining activity": "100%"}
{"target": "Rho-associated protein kinase 2 (ROCK2, Homo sapiens, UniProt O75116)", "remaining activity": "125%"}
{"target": "Myotonin-protein kinase (DMPK, Homo sapiens, UniProt Q09013)", "remaining activity": "95.6%"}
{"target": "Cyclin-dependent kinase 2, with cyclin A (CDK2, Homo sapiens, UniProt P24941)", "remaining activity": "93.1%"}
{"target": "Aurora kinase A (AURKA, Homo sapiens, UniProt O14965)", "remaining activity": "79.6%"}
{"target": "G protein-coupled receptor kinase 5 (GRK5, Homo sapiens, UniProt P34947)", "remaining activity": "82.2%"}
{"target": "Homeodomain-interacting protein kinase 3 (HIPK3, Homo sapiens, UniProt Q9H422)", "remaining activity": "87.4%"}
{"target": "Serine/threonine-protein kinase N2 (PKN2, Homo sapiens, UniProt Q16513)", "remaining activity": "99.1%"}
{"target": "Proto-oncogene tyrosine-protein kinase ROS (ROS1, Homo sapiens, UniProt P08922)", "remaining activity": "89.7%"}
{"target": "Serine/threonine-protein kinase D1 (PRKD1, Homo sapiens, UniProt Q15139)", "remaining activity": "102%"}
{"target": "Serine/threonine-protein kinase Nek9 (NEK9, Homo sapiens, UniProt Q8TD19)", "remaining activity": "103%"}
